Measurements pooled from the literature.
Every numbered part comes from another study and shows a few of its results, in no order.
UniProt Q9UPE1, sequence (whole entry, looked up): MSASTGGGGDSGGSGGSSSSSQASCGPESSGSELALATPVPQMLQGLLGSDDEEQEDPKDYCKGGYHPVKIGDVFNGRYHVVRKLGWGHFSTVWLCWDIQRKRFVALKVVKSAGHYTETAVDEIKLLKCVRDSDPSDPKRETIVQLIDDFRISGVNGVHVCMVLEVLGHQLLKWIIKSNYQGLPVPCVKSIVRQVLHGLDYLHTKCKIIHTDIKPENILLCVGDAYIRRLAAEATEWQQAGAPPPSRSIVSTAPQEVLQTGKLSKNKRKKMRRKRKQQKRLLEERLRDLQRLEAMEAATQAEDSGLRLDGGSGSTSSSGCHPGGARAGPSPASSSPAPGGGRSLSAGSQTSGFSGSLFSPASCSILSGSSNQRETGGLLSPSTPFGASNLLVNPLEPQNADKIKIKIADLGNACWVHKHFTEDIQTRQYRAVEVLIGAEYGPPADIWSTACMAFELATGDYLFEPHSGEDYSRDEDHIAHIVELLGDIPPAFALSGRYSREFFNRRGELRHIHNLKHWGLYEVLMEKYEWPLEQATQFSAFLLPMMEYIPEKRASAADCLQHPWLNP
UniProt O15197, sequence (whole entry, looked up): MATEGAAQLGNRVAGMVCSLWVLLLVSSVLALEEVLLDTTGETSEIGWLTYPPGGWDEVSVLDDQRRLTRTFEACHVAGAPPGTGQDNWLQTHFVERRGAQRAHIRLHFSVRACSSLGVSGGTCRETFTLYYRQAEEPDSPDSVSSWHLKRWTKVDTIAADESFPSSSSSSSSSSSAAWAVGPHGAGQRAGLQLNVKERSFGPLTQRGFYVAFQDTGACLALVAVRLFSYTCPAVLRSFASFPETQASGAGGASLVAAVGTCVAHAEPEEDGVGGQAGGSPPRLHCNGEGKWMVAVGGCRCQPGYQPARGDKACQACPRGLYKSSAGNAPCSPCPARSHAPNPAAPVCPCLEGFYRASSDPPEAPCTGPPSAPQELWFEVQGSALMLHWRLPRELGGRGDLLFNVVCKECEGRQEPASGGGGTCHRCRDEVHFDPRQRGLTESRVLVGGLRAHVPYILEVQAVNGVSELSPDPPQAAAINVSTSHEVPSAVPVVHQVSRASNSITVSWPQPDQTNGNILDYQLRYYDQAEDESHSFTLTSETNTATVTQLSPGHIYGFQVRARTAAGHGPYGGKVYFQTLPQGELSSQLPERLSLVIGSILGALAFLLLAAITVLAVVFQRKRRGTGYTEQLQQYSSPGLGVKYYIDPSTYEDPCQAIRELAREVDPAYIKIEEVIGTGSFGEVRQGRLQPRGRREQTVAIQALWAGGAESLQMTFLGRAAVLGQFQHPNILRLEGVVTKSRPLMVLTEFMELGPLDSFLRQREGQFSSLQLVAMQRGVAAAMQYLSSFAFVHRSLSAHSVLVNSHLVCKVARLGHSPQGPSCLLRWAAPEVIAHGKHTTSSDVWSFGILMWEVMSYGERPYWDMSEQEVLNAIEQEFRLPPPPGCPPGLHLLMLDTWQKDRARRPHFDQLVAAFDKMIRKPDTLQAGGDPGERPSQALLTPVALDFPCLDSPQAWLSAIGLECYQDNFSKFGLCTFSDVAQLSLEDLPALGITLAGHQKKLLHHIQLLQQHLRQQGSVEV
UniProt P78368, sequence (whole entry, looked up): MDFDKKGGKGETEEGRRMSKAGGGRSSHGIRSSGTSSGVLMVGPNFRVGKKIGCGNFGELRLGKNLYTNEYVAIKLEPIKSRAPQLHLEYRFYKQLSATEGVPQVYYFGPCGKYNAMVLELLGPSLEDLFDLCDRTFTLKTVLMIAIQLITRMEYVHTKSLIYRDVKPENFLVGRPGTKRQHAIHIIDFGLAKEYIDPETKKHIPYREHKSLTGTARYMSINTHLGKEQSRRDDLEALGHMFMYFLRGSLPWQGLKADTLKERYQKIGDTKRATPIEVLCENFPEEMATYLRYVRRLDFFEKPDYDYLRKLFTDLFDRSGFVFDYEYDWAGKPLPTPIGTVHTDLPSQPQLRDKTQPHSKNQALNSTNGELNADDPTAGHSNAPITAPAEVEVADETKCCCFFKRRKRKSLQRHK
UniProt Q9Y6E0, sequence (whole entry, looked up): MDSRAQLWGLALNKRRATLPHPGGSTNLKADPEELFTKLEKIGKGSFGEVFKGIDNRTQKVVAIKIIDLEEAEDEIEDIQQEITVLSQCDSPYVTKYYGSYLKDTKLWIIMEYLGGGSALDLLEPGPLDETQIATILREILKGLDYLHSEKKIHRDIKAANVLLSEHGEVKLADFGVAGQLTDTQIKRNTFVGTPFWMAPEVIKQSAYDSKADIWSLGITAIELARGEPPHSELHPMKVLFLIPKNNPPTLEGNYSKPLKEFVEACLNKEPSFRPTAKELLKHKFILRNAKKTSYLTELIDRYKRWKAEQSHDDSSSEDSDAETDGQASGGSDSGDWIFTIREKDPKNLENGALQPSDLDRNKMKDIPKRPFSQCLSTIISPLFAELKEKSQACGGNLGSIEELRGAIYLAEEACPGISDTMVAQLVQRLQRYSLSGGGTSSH
UniProt P36894, sequence (whole entry, looked up): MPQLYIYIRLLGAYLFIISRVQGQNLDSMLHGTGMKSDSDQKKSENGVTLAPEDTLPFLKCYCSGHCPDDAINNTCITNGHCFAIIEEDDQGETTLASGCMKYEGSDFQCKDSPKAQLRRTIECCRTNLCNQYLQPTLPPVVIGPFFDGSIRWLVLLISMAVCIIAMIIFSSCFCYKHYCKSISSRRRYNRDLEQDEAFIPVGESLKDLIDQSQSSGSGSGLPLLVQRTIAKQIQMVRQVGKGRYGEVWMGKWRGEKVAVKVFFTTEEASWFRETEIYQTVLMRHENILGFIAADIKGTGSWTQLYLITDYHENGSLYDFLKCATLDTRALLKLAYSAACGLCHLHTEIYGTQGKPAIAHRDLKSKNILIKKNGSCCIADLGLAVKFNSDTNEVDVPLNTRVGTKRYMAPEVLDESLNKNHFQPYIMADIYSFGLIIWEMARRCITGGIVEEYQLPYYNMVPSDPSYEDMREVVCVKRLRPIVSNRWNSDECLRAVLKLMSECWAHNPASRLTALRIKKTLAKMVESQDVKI
UniProt Q9HCP0, sequence (whole entry, looked up): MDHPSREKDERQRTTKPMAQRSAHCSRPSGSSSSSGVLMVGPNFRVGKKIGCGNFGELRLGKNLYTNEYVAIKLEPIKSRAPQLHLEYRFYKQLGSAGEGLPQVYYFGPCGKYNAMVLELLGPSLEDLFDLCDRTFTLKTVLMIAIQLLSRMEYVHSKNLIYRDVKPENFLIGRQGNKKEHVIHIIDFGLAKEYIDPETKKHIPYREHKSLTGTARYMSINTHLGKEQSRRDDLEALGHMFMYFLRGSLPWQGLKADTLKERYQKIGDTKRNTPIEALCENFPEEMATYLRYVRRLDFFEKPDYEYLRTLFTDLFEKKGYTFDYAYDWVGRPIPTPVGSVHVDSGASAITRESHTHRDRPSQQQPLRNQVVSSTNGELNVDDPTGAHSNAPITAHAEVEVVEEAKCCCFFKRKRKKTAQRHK
UniProt Q92918, sequence (whole entry, looked up): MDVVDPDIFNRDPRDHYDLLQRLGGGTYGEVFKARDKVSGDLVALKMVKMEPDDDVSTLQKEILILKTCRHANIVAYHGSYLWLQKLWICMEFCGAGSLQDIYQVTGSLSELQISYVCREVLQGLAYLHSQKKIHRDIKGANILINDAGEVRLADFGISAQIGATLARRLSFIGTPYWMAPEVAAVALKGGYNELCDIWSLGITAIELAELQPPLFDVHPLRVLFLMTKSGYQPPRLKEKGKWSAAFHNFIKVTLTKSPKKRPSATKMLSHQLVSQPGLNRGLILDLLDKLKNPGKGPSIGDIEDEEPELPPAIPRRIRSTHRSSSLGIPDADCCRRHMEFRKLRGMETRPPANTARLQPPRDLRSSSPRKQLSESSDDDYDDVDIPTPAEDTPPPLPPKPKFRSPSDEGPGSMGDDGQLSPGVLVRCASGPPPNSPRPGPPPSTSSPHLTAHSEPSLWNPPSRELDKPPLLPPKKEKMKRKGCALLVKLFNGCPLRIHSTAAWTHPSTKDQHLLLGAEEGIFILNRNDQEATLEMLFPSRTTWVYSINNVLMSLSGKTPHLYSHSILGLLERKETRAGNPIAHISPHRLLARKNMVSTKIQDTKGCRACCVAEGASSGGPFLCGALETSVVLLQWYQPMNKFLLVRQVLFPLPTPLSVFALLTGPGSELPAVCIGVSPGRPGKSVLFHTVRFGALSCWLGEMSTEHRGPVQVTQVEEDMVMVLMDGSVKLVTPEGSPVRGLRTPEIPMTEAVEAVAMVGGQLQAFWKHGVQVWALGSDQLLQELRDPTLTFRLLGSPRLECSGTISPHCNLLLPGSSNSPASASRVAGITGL

Sample 1 — observed: enzyme activity; mode: inhibitor; tested at: 0.5 µM; reference: control
Target: Serine/threonine-protein kinase PLK2 (PLK2, Homo sapiens, UniProt Q9NYY3)
UniProt Q9NYY3, sequence (whole entry, looked up): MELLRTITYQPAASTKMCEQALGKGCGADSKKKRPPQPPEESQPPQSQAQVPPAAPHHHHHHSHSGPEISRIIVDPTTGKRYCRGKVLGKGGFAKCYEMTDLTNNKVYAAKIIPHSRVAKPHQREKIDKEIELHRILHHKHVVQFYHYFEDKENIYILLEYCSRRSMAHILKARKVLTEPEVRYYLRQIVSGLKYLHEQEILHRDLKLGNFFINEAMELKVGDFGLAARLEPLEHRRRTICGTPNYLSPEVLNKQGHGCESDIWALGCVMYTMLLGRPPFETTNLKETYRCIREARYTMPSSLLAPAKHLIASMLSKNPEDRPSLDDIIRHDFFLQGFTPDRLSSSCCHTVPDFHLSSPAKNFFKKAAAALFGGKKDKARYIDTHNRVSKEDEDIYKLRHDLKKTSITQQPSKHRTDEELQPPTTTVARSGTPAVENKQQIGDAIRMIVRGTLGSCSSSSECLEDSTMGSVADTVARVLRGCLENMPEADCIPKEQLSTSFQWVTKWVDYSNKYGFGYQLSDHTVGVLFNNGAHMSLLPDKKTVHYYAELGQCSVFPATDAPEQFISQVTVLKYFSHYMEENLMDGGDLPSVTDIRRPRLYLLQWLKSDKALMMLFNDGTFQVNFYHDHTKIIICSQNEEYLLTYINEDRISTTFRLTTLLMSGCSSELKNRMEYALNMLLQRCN
For `Nc1cccc(-c2cc3c(Oc4cccc(O)c4)ncnc3[nH]2)c1`, the remaining activity was 106%.
With `CCN(CC)CCNC(=O)c1c(C)[nH]c(/C=C2\C(=O)Nc3ccc(Cl)cc32)c1C` the remaining activity was 91.2%.
The remaining activity of `CN([C@@H](Cc1ccc(OS(=O)(=O)c2cccc3cnccc23)cc1)C(=O)N1CCN(c2ccccc2)CC1)S(=O)(=O)c1cccc2cnccc12` is reported as 102%.
With `COc1cc2ncnc(Nc3cccc(Cl)c3)c2cc1OC` the remaining activity was 102%.
The remaining activity of `O=C1C(Cl)=C(N2C(=O)CCC2=O)C(=O)c2ccccc21` is reported as 96%.
`O=c1cc(-c2cccc3c2Sc2ccccc2S3)oc(N2CCOCC2)c1` has a remaining activity of 84.6%.
The remaining activity of `Ic1cccc(CSc2nnc(-c3ccncc3)o2)c1` is reported as 101%.
`O=C1c2ccccc2-c2n[nH]c3cccc1c23` has a remaining activity of 95%.
For `CCN(CC)C(=O)c1ccc(Nc2nc(OCC3CCCCC3)c3[nH]cnc3n2)cc1`, the remaining activity was 98.2%.
With `N#Cc1c(NC(=O)c2cccc3ccccc23)sc2c1CCCC2` the remaining activity was 101%.
The remaining activity of `Cc1cn(-c2cc(NC(=O)c3ccc(C)c(Nc4nccc(-c5cccnc5)n4)c3)cc(C(F)(F)F)c2)cn1` is reported as 107%.
The remaining activity of `COc1cc2ncnc(Nc3ccc(O)c(Br)c3)c2cc1OC` is reported as 104%.
`CN(C)C[C@H]1CCn2c(c(C3=C(c4cn(C)c5ccccc45)C(=O)NC3=O)c3ccccc32)C1` has a remaining activity of 99.9%.
With `N#C/C(=C\c1ccc(O)c(O)c1)C(=O)NCc1ccccc1` the remaining activity was 105%.
`Cc1cc2ncc(-c3ccccc3)nc2cc1C` gave a remaining activity of 95%.
`O=C(Nc1cccc(Nc2nccc(Nc3cccc(C(F)(F)F)c3)n2)c1)C1CC1` gave a remaining activity of 99.5%.
For `C[C@@H]1CCN(C(=O)CC#N)C[C@@H]1N(C)c1ncnc2[nH]ccc12`, the remaining activity was 102%.
The remaining activity of `CCN(CC)CCNC(=O)c1c(C)[nH]c(/C=C2\C(=O)Nc3ccc(F)cc32)c1C` is reported as 99.2%.
The remaining activity of `Cc1nc2cc3nc(-c4cccs4)cnc3cc2n1C` is reported as 99.4%.
With `COc1cc2c(cc1OC)-c1[nH]nc(Nc3cccc(F)c3)c1C2` the remaining activity was 97.1%.
The remaining activity of `Cn1nc2c3c(cccc31)C(=O)c1ccccc1-2` is reported as 93.5%.
With `O=C(NC(NC(=S)Nc1ccc(F)c([N+](=O)[O-])c1)C(Cl)(Cl)Cl)C(c1ccccc1)c1ccccc1` (centres unmarked) the remaining activity was 92.9%.
`c1ccc(-c2[nH]ncc2-c2ccnc3ccccc23)nc1` has a remaining activity of 98.9%.
`CCOc1nc(NC(=O)Cc2cc(OC)ccc2OC)cc(N)c1C#N` gave a remaining activity of 105%.
`c1ccc(-c2cnc(Nc3ccc(OCCN4CCCC4)cc3)s2)cc1` gave a remaining activity of 105%.

Sample 2 — technique: protein binding microarray; molecule type: double-stranded DNA, one strand shown; medium: in vitro; tested at: not given; reference: not given; reading: higher = stronger binding
Target: Histone acetyltransferase KAT6A, both winged helices, GST fusion (KAT6A, Homo sapiens, UniProt Q92794, residues 1-181)
Notes: 8-mer, flanks averaged, mean of 2 arrays, mostly near background
Target sequence (chain): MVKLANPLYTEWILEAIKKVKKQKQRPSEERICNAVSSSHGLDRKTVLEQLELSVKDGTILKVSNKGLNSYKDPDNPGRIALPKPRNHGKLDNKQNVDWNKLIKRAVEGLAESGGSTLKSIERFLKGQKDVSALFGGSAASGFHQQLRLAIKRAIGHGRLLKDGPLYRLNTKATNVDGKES
With `GAAAAGAA` the E-score was -0.0227.
`AAAAATCC` gave an E-score of -0.0181.
The E-score of `GTCGATCA` is reported as -0.137.
With `GCACCGTA` the E-score was 0.21.
The E-score of `GAAGGCAA` is reported as -0.117.
With `GCAAAATA` the E-score was -0.0771.
The E-score of `GAGATTGC` is reported as 0.0971.
For `ACATGCAA`, the E-score was -0.131.

Sample 3 — technique: competition with immobilised ligand; tested at: 1 µM
SMILES: CC(=O)C1=C(C)N(c2cccc(C(F)(F)F)c2)C(=O)N[C@@H]1c1ccc(C#N)nc1
For FLT3 (Homo sapiens, UniProt P36888, N841I); cell-free assay: remaining binding read 73.8%.
For MAP4K1 (Homo sapiens, UniProt Q92918); cell-free assay: remaining binding read 100%.
It gave 100% for remaining binding (Tyrosine-protein kinase ABL1, non-phosphorylated (ABL1, Homo sapiens, UniProt P00519, T315I); cell-free assay).
STK24 (Homo sapiens, UniProt Q9Y6E0); cell-free assay — remaining binding: 95.4%.
The remaining binding was 85% (EPHB6 (Homo sapiens, UniProt O15197); cell-free assay).
The remaining binding was 87.5% (ACVR2B (Homo sapiens, UniProt Q13705); cell-free assay).
It gave 100% for remaining binding (CSNK1G1 (Homo sapiens, UniProt Q9HCP0); cell-free assay).
IGF1R (Homo sapiens, UniProt P08069); cell-free assay — remaining binding: 100%.
It gave 100% for remaining binding (LRRK2 (Homo sapiens, UniProt Q5S007, G2019S); cell-free assay).
CSNK1G2 (Homo sapiens, UniProt P78368); cell-free assay — remaining binding: 94.6%.
It gave 94.8% for remaining binding (CSNK2A1 (Homo sapiens, UniProt P68400); cell-free assay).
The remaining binding was 100% (BMPR1A (Homo sapiens, UniProt P36894); binding).
PRKACB (Homo sapiens, UniProt P22694); cell-free assay — remaining binding: 48.7%.
SRPK3 (Homo sapiens, UniProt Q9UPE1); cell-free assay — remaining binding: 100%.
For MAP3K5 (Homo sapiens, UniProt Q99683); cell-free assay: remaining binding read 94.8%.
TYRO3 (Homo sapiens, UniProt Q06418); cell-free assay — remaining binding: 66.9%.
It gave 100% for remaining binding (PRPF4B (Homo sapiens, UniProt Q13523); cell-free assay).
It gave 84.1% for remaining binding (FES (Homo sapiens, UniProt P07332); cell-free assay).
It gave 89% for remaining binding (GRK2 (Homo sapiens, UniProt P25098); cell-free assay).

Mixed results
For `CC(C)n1cnc(-c2ccc(F)cc2)c1-c1ncc(C(=O)Nc2ccc(N3CCN(C)CC3)cc2)[nH]1`, “carbon dioxide decreased incidence” read 0% (IPF patients; 60 mg once daily, adverse event).

Excerpt of the above (sample 1):
`O=c1cc(-c2cccc3c2Sc2ccccc2S3)oc(N2CCOCC2)c1` has a remaining activity of 84.6%.
The remaining activity of `Ic1cccc(CSc2nnc(-c3ccncc3)o2)c1` is reported as 101%.
`O=C1c2ccccc2-c2n[nH]c3cccc1c23` has a remaining activity of 95%.
For `CCN(CC)C(=O)c1ccc(Nc2nc(OCC3CCCCC3)c3[nH]cnc3n2)cc1`, the remaining activity was 98.2%.
With `N#Cc1c(NC(=O)c2cccc3ccccc23)sc2c1CCCC2` the remaining activity was 101%.
